Measured values pooled from the literature.
Numbered parts are unrelated; each lists some results of a single study. Positions count from the first letter of the parent shown.

Sample 1
Target: CCND3, cyclin fold, Cln2 fusion (human)
Method: yeast growth competition, sequencing
Matrix: yeast
Notes: weak parent motif
Reference: not given
Reading: higher = stronger binding
Parent: MASTL docking peptide (human); PMIAKNLMCELDE; partner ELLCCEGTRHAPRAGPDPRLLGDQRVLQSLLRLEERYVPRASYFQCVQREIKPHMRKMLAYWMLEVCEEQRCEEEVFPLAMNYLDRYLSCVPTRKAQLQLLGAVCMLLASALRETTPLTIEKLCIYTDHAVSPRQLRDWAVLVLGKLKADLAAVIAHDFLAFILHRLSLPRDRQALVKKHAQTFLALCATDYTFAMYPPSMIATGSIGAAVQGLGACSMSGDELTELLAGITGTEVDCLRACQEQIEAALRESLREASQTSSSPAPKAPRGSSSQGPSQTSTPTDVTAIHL
`PMIAKNLMCELCE [D12C]`: “normalised enrichment score” -0.0661.
`PMIAKNLMYELDE [C9Y]` — result for “normalised enrichment score”: -0.403.
For `PMIAPNLMCELDE [K5P]`, “normalised enrichment score” read -0.569.
`PMIAKTLMCELDE [N6T]` — result for “normalised enrichment score”: 0.32.
Under “normalised enrichment score”, `PMIAKNAMCELDE [L7A]` is recorded as -0.252.
`PMCAKNLMCELDE [I3C]`: “normalised enrichment score” 0.09.
For `PMIAKNLMWELDE [C9W]`, “normalised enrichment score” read -0.379.
Under “normalised enrichment score”, `PMVAKNLMCELDE [I3V]` is recorded as -0.2.
`PMIAKELMCELDE [N6E]` — result for “normalised enrichment score”: -0.0903.

Sample 2
Target: ABI1, truncated, D143A, DHFR fusion (Arabidopsis thaliana)
Method: DHFR PCA, deep sequencing
Matrix: yeast
Notes: methotrexate growth selection, single substitutions
Together with: (+)-ABA 710 µM
Reference: wild-type fitted maximum
Reading: higher = stronger binding
Parent: PYL1, truncated, DHFR fusion (Arabidopsis thaliana); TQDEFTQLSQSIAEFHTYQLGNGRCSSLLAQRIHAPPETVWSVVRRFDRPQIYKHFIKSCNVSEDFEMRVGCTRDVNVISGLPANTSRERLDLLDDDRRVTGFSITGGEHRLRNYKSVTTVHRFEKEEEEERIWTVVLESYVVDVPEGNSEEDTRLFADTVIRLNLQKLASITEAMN; partner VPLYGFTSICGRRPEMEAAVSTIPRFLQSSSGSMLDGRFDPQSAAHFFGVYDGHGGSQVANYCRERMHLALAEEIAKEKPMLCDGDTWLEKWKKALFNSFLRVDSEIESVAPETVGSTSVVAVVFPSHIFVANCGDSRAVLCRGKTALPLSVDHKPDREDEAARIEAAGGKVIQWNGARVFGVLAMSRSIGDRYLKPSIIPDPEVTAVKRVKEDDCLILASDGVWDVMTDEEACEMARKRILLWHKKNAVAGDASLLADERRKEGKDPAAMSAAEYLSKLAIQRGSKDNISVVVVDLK
For `L93I`, “relative binding score” read 110%.
`I162S`: “relative binding score” 35.6%.
`V137I` — result for “relative binding score”: 96.1%.
`V70F` — result for “relative binding score”: 76%.
`C25D` — result for “relative binding score”: -2.55%.
`N165P`: “relative binding score” 7.14%.

Sample 3
Target: Interferon regulatory factor 5, full length, phosphomimetic (IRF5, Homo sapiens, UniProt Q13568-2, residues 1-514, K96S/S451D/S453D/S456D/S462D)
Method: protein-binding microarray
Molecule type: double-stranded DNA, one strand shown
Matrix: in vitro
Concentration: 250 nM
Notes: 60-bp whole probe
Together with: salmon DNA 0.4 mg/ml
Reference: random background probes
Reading: higher = stronger binding
Shared flanks, not repeated: GCCTAGCAC … GTCTTGATTCGCTTGACGCTGCTG
The log fluorescence of `TTAGAGCTCCTCCTTCTCTAAGTGCTA` is reported as -0.19 z-score.
The log fluorescence of `GACGGTATCTGACTGGGGACGTGCTAG` is reported as -0.135 z-score.
For `GACGGACTGGGTTCCGGGACGTGCTAG`, the log fluorescence was -0.524 z-score.
`TTAGGTTTCGACTTTCGGTGAGTGCTA` gave a log fluorescence of 9.79 z-score.
The log fluorescence of `TTCGATATCAGTTTCGATTAGTGCTAG` is reported as 9.95 z-score.
The log fluorescence of `TTAGGACTGGTGTATCGGTTAGTGCTA` is reported as 2.75 z-score.
With `TTCTCTTTCCTTCTTGATGCGTGCTAG` the log fluorescence was 1.61 z-score.
With `GACGATATCGGGTTTCGAGCCGTGCTA` the log fluorescence was 2.99 z-score.

Other studies, line by line
The fold induction of `PhoQ, residues 284 288 289 292 302 303 SNSSNI` is reported as 5.54 (PhoP, residues 12 14 15 18 19 LHTVM (Escherichia coli, UniProt P23836); Sort-seq, measured: YFP reporter; E. coli; PhoQ-PhoP variant library, together with: 10 µM Mg2+; reference: high Mg2+ state, higher = stronger signaling).

Some of these lines once more (sample 2):
`I162S`: “relative binding score” 35.6%.
`V137I` — result for “relative binding score”: 96.1%.
